Measured values from different studies.
Each numbered part is a random draw from the data of one study; scales do not carry over between parts.
Sequence of UniProt Q8TF76 (whole entry, looked up): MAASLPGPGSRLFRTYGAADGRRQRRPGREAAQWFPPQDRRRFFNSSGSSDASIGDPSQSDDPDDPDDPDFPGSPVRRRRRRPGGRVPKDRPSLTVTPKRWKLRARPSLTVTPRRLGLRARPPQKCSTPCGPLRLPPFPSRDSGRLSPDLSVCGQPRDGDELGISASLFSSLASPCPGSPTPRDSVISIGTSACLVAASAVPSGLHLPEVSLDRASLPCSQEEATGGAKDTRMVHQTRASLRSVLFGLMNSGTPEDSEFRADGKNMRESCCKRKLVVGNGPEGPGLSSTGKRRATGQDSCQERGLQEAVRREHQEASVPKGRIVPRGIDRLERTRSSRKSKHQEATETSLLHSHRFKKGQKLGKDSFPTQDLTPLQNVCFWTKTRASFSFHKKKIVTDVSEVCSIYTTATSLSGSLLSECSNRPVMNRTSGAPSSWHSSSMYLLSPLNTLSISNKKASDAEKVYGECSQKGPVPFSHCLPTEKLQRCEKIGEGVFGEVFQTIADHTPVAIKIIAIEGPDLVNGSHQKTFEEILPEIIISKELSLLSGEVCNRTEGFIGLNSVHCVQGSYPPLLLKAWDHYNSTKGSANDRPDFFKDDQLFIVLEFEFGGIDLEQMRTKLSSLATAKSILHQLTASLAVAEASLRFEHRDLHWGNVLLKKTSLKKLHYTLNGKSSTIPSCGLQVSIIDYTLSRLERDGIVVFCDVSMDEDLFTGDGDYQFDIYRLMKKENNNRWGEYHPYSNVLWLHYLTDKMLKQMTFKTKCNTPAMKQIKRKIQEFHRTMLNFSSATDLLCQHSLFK
Sequence of UniProt P11362 (whole entry, looked up): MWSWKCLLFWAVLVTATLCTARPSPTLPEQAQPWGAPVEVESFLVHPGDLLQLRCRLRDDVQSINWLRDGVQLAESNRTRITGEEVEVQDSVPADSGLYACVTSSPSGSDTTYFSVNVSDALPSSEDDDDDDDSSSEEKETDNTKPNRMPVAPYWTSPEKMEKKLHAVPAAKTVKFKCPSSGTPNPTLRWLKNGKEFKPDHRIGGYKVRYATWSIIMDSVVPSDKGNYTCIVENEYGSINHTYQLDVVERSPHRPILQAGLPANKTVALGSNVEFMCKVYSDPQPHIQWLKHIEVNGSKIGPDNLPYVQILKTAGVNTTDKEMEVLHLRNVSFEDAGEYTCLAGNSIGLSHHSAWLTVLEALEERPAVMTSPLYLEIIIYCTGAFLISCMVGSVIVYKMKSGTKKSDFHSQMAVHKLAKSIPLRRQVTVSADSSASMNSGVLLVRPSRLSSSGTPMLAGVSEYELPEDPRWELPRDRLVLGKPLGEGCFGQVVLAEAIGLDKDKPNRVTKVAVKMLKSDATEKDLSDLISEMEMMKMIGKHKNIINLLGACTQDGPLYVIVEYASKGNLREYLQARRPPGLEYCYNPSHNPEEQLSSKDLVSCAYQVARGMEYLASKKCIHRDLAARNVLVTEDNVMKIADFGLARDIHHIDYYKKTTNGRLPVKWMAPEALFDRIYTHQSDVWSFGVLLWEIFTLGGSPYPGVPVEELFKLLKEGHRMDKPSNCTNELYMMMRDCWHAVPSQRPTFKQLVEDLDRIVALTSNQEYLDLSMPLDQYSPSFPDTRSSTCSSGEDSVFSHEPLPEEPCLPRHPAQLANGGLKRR

Series 1
Target: Calcium/calmodulin-dependent protein kinase type II subunit alpha (CAMK2A, Homo sapiens, UniProt Q9UQM7)
Sequence of UniProt Q9UQM7 (whole entry, looked up): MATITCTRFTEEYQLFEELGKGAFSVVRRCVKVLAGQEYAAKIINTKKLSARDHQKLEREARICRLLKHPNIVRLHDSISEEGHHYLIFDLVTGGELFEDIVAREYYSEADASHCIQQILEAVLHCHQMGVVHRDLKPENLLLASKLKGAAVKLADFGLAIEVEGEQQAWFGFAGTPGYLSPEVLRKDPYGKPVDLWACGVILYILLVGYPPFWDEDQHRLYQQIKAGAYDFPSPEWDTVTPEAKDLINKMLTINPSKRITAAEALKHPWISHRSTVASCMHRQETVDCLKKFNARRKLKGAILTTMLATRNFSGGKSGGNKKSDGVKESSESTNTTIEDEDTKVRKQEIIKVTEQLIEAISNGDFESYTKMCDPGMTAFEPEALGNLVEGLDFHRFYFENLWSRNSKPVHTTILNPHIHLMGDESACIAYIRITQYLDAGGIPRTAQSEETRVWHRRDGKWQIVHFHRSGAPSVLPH
Observed: enzyme activity
Mode: inhibitor
Tested at: 10 µM
Compound | inhibition
CC(C)CC(N)=O | -22%
Clc1cccc(C(c2ccc3[nH]cnc3c2)n2ccnc2)c1 (stereo not shown) | -12%
C[C@@H]1C[C@H]2[C@@H]3C[C@H](F)C4=CC(=O)C=C[C@]4(C)[C@@]3(F)[C@@H](O)C[C@]2(C)[C@@]1(OC(=O)c1ccco1)C(=O)SCF | 2%
CC(C)=CCC/C(C)=C/CC/C(C)=C/CC/C=C(\C)CC/C=C(\C)CCC=C(C)C | -9%
OCCOc1ccc(/C(=C(/CCCl)c2ccccc2)c2ccccc2)cc1 | 4%
Nc1ccn([C@H]2C[C@H](O)[C@@H](COP(=O)(O)O)O2)c(=O)n1 | -17%
CCCCCCCCCC(=O)OCC(COC(=O)CCCCCCCCC)OC(=O)CCCCCCCCC | 14%
COc1cc(CCC(C)=O)ccc1O | -15%
O=C1CCCC(=O)C1C(=O)c1ccc(C(F)(F)F)cc1[N+](=O)[O-] | -11%
CC(C)=CC(=O)O | 15%
CCN1CCN(c2cc(-c3ccc(F)cc3)c3c(n2)CCCCCC3)CC1 | -5%
COc1c(O[C@@H]2O[C@H](C(=O)O)[C@@H](O)[C@H](O)[C@H]2O)cc2oc(-c3ccccc3)cc(=O)c2c1O | -4%
CC(C)(C)CC(C)(C)c1ccc(O)c(Cc2ccc(Cl)cc2Cl)c1 | -4%

Series 2
Compound: C=CCc1ccc(O)c(-c2ccc(O)c(CC=C)c2)c1
Observed: chloride current
Technique: whole-cell voltage clamp
ANO1 del476-501/F807I: Anoctamin-1 (ANO1, Homo sapiens, UniProt Q5XXA6, del476-501/F807I)
Sequence of UniProt Q5XXA6 (whole entry, unmodified, looked up): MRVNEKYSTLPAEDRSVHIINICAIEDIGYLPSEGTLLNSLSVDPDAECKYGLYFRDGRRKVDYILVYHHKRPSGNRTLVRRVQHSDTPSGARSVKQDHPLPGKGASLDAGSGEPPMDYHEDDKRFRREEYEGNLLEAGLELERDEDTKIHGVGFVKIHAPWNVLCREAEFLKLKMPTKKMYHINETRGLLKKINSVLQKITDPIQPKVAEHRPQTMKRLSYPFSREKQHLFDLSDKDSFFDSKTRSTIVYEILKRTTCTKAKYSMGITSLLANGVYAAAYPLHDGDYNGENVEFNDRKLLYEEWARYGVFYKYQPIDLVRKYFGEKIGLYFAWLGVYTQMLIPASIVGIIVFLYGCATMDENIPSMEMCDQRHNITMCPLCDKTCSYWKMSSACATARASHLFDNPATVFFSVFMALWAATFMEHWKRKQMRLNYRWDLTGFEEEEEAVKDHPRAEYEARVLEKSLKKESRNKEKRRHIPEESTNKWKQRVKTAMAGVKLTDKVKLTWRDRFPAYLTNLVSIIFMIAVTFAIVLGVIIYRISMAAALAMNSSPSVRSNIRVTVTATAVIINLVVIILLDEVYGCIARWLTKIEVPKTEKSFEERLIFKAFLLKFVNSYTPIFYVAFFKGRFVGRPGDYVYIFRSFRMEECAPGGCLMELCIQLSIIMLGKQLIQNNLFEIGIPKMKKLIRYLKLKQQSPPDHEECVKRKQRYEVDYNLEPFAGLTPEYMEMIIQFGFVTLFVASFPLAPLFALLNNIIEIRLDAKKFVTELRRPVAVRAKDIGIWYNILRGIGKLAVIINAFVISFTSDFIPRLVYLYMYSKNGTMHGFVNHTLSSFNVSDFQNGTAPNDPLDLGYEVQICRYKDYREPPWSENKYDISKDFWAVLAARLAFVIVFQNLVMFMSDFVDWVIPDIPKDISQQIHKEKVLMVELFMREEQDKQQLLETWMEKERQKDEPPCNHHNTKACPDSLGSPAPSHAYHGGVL
ANO1 del476-501/F807W: Anoctamin-1 (ANO1, Homo sapiens, UniProt Q5XXA6, del476-501/F807W)
target | mode | tested at | setting | added | IC50
Anoctamin-1 (ANO1, Homo sapiens, UniProt Q5XXA6, del476-501/F628W) | inhibitor | 40 mV holding voltage |  |  | 12.2 µM
Anoctamin-1 (ANO1, Homo sapiens, UniProt Q5XXA6, del476-501/F627A) |  |  | membrane voltage 40 mV |  | 6.39 µM
Anoctamin-1 (ANO1, Homo sapiens, UniProt Q5XXA6, del476-501) | inhibitor |  | 100 mV voltage | 300 nM Ca2+ | 6.37 µM
Anoctamin-1 (ANO1, Homo sapiens, UniProt Q5XXA6, del476-501/F803A) |  |  | membrane voltage 20 mV |  | 10.8 µM
ANO1 del476-501/F807I | inhibitor |  | F781I mutant at -80 mV |  | 14.8 µM
Anoctamin-1 (ANO1, Homo sapiens, UniProt Q5XXA6, del476-501/F623A) |  |  | membrane voltage 80 mV |  | 8.92 µM
ANO1 del476-501/F807I | inhibitor |  | mutant F781I at 100 mV | 300 nM Ca2+ | 7.5 µM
Anoctamin-1 (ANO1, Homo sapiens, UniProt Q5XXA6, del476-501/F807A) | inhibitor |  | mutant F781A |  | 18.4 µM
ANO1 del476-501/F807I | inhibitor |  | F781I mutant at -40 mV |  | 7.23 µM
ANO1 del476-501/F807W | inhibitor | 40 mV holding voltage |  |  | 9.26 µM
ANO1 del476-501/F807W | inhibitor | 60 mV holding voltage |  |  | 9.68 µM

Series 3
Target: Calcium/calmodulin-dependent protein kinase type II subunit gamma (CAMK2G, Homo sapiens, UniProt Q13555)
Sequence of UniProt Q13555 (whole entry, looked up): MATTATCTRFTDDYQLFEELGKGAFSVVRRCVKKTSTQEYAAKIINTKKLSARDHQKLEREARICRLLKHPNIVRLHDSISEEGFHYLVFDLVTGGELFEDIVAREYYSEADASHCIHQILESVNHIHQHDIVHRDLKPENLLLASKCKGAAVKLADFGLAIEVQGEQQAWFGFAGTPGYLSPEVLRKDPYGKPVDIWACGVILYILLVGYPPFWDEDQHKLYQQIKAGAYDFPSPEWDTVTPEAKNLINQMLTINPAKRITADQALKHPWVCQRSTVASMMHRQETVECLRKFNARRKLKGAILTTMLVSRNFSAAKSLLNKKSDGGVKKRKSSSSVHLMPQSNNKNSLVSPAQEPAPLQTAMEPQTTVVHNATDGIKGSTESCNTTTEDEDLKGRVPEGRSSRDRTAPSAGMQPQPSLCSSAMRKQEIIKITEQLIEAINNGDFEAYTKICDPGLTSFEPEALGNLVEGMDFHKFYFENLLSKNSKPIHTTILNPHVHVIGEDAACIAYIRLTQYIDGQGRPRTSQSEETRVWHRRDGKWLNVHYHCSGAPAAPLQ
Observed: enzyme activity
Mode: inhibitor
Tested at: 0.5 µM
Baseline: control
Structure (SMILES) | remaining activity
COc1cccc(-c2cc(=O)c3ccccc3o2)c1N | 96.6%
c1ccc(-c2n[nH]c3c2oc2ccccc23)cc1 | 93.3%
Oc1cccc(-c2nc(N3CCOCC3)c3oc4ncccc4c3n2)c1 | 100%
CN1CCN(c2ccc3nc(-c4c(N)c5c(F)cccc5[nH]c4=O)[nH]c3c2)CC1 | 97.6%
N#Cc1cnc2cnc(NCc3cccnc3)cc2c1Nc1ccc(F)c(Cl)c1 | 91.2%
CCCNC(=O)Nc1ccc(Oc2ncnc3cc(OC)c(OC)cc23)cc1Cl | 90.5%
COc1ccc(COc2ccc(Cc3cnc(N)nc3N)cc2OC)cc1 | 94.4%
O=C1Nc2ccc(Br)cc2/C1=C/c1cc2c([nH]1)CCCC2 | 92.4%
O=C1NC(=O)c2c1c1c3ccccc3[nH]c1c1[nH]c3cc(Br)ccc3c21 | 99.5%
Cc1cc(Nc2cc(N3CCN(C)CC3)nc(Sc3ccc(NC(=O)C4CC4)cc3)n2)[nH]n1 | 109%
c1ccc2c(-c3ccncc3)c[nH]c2c1 | 92.6%
O=C(c1cc2cc(O)ccc2[nH]1)c1cc2cc(O)ccc2[nH]1 | 89.5%
CN(C)S(=O)(=O)c1ccc2c(c1)/C(=C/c1cc3c([nH]1)CCCC3)C(=O)N2 | 98.9%
O=Nc1c(-c2c(O)[nH]c3cc(Br)ccc23)[nH]c2ccccc12 | 28.3%
O=C1Cc2c([nH]c3ccc(Br)cc23)-c2ccccc2N1 | 116%
O=c1cc(N2CCOCC2)oc2c(-c3ccccc3)cccc12 | 90.5%
O=C1NC(=O)c2c1c1c3ccccc3[nH]c1n1cncc21 | 52.3%
COc1ccc2c(c1)c(C1=C(c3c[nH]c4ccccc34)C(=O)NC1=O)cn2CCCN(C)C | 91.1%
O=C1Nc2ccccc2/C1=C\c1c(Cl)[nH]c2ccccc12 | 103%
CCCCc1c(-c2ccc(OC)cc2)[nH]c2nccnc12 | 107%

Series 4
SMILES: N#CC1(c2ccccn2)CCN(Cc2cc(C(=O)N3CCCC3)c(=O)n3ccccc23)CC1
Observed: cell-free assay
Technique: competition with immobilised ligand
Tested at: 1 µM
target | remaining binding [%]
CSNK1E (Homo sapiens, UniProt P49674) | 100
EGFR (Homo sapiens, UniProt P00533, del747-752/P753S) | 67
DYRK1B (Homo sapiens, UniProt Q9Y463) | 53
FGFR1 (Homo sapiens, UniProt P11362) | 93
FER (Homo sapiens, UniProt P16591) | 89
PKN2 (Homo sapiens, UniProt Q16513) | 88
VRK2 (Homo sapiens, UniProt Q86Y07) | 100
TEC (Homo sapiens, UniProt P42680) | 100
IRAK3 (Homo sapiens, UniProt Q9Y616) | 100
HASPIN (Homo sapiens, UniProt Q8TF76) | 100
SRC (Homo sapiens, UniProt P12931) | 56
MET (Homo sapiens, UniProt P08581, Y1235D) | 97
Aurora kinase C (AURKC, Homo sapiens, UniProt Q9UQB9) | 88
BLK (Homo sapiens, UniProt P51451) | 73
EGFR (Homo sapiens, UniProt P00533, L858R/T790M) | 100
BMPR1A (Homo sapiens, UniProt P36894) | 74
Non-receptor tyrosine-protein kinase TYK2, JH1 (TYK2, Homo sapiens, UniProt P29597) | 91
ACVR1B (Homo sapiens, UniProt P36896) | 69
MAPK11 (Homo sapiens, UniProt Q15759) | 76
PRKD3 (Homo sapiens, UniProt O94806) | 100

Excerpt of the above (series 4):
target | remaining binding [%]
SRC (Homo sapiens, UniProt P12931) | 56
EGFR (Homo sapiens, UniProt P00533, L858R/T790M) | 100
DYRK1B (Homo sapiens, UniProt Q9Y463) | 53
CSNK1E (Homo sapiens, UniProt P49674) | 100
MET (Homo sapiens, UniProt P08581, Y1235D) | 97
